Measurements pooled from the literature.
Numbered parts are unrelated; each lists some results of a single study. Several values in a cell are separate wells, animals, samples, runs or records.
UniProt Q92772, sequence (whole entry, looked up): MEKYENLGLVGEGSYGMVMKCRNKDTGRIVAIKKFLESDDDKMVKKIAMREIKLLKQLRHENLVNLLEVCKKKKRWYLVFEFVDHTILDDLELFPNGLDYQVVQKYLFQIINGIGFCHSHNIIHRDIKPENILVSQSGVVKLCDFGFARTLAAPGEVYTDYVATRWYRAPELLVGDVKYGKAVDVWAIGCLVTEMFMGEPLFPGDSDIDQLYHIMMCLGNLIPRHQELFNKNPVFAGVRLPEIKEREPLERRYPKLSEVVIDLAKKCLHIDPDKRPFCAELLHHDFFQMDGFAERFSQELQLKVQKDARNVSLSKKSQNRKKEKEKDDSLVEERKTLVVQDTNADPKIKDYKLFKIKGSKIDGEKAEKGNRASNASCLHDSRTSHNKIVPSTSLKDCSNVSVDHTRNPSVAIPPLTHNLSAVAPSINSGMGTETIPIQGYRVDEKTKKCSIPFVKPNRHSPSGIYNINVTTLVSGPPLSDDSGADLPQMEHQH
UniProt Q9P0L2, sequence (whole entry, looked up): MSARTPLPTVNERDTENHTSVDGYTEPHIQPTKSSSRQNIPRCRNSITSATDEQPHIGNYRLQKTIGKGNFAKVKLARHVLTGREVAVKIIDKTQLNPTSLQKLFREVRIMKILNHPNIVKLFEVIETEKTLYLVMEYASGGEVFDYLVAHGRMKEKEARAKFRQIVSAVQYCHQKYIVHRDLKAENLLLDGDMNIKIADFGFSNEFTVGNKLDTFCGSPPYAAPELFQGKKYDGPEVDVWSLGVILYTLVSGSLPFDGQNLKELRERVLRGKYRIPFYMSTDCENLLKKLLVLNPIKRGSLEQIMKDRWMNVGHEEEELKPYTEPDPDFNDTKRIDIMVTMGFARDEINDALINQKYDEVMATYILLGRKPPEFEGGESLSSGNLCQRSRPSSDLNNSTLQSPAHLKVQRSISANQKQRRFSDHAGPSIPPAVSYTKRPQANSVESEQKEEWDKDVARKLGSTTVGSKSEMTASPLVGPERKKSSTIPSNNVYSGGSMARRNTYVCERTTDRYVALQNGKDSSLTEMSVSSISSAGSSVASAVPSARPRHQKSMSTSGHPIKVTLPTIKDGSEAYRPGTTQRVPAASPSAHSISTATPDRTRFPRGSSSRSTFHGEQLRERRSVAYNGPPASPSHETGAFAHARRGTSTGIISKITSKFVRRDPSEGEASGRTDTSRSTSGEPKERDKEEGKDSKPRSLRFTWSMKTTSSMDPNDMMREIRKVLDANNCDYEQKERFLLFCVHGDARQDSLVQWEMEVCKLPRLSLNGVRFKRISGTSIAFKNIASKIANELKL
UniProt Q92630, sequence (whole entry, looked up): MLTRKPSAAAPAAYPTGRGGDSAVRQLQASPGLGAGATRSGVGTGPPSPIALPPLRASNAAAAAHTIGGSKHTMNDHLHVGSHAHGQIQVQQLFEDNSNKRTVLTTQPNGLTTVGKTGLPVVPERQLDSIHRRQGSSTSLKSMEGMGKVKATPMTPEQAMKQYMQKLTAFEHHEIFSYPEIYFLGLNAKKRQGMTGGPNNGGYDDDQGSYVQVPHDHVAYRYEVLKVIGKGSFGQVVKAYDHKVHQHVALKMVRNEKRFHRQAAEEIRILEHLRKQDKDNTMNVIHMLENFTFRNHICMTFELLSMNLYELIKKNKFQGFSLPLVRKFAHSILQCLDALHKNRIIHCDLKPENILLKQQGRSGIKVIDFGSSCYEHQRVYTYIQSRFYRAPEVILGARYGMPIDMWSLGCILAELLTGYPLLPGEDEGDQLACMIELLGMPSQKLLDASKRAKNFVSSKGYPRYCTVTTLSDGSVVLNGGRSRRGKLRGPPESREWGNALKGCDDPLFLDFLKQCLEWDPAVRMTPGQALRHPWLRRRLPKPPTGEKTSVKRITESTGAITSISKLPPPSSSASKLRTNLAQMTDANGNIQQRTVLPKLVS
UniProt Q9BQI3, sequence (whole entry, looked up): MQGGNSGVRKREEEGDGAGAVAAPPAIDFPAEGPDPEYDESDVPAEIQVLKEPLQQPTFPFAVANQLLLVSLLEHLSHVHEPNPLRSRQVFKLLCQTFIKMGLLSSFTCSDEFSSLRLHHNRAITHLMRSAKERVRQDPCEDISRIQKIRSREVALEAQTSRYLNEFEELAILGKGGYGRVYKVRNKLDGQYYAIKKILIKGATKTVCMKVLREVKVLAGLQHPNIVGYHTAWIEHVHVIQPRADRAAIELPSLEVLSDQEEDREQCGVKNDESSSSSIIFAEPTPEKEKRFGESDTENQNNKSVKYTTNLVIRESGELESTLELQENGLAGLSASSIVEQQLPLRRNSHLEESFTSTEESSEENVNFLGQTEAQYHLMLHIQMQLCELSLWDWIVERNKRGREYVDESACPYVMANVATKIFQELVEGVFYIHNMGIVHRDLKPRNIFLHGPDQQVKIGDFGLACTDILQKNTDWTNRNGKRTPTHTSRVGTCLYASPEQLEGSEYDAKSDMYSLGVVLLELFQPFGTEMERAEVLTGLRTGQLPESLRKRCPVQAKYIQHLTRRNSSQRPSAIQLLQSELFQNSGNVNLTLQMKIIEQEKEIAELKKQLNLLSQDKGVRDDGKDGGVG

Study 1
Species: human
Matrix: microsomes or S9
Concentration: 2 µM
Time: 0.5 h
| Compound | remaining compound [%] |
| --- | --- |
| Cc1ccc(CNS(=O)(=O)c2cc(-c3ccc(=O)[nH]n3)cc(C)c2C)cc1 | 0.749 |
| CC1(COc2ccc(Cl)cc2)CC(n2cncn2)C(c2ccc(Cl)cc2)=NO1 (centres unmarked) | 73.6 |
| CCn1nc(-c2nnc3n2CC(C)(C)CC3)c2ccccc2c1=O | > 100 |
| O=C(NC1CCN(CCc2ccc(F)cc2)CC1)c1cc2ccccc2s1 | 67.6 |
| Cn1ncc(N2CC(O)CC2C2CCCCC2)c(Br)c1=O (centres unmarked) | 82.9 |
| Cc1cn[nH]c1C1(C)CCCN(S(=O)(=O)c2cnn(C)c2)C1 (centres unmarked) | 1.3 |
| O=C(Nc1ccc2nc(N3CCN(c4ccccc4)CC3)cc(C(=O)O)c2c1)c1ccccc1F | 84.5 |
| CC1=NN(c2ccc3nncn3n2)C(=N)C1C(O)C(F)(F)F (centres unmarked) | 85.5 |

Study 2
Target: DNA polymerase theta, ATPase domain (POLQ, Homo sapiens, UniProt O75417)
UniProt O75417, sequence (whole entry, unmodified, looked up): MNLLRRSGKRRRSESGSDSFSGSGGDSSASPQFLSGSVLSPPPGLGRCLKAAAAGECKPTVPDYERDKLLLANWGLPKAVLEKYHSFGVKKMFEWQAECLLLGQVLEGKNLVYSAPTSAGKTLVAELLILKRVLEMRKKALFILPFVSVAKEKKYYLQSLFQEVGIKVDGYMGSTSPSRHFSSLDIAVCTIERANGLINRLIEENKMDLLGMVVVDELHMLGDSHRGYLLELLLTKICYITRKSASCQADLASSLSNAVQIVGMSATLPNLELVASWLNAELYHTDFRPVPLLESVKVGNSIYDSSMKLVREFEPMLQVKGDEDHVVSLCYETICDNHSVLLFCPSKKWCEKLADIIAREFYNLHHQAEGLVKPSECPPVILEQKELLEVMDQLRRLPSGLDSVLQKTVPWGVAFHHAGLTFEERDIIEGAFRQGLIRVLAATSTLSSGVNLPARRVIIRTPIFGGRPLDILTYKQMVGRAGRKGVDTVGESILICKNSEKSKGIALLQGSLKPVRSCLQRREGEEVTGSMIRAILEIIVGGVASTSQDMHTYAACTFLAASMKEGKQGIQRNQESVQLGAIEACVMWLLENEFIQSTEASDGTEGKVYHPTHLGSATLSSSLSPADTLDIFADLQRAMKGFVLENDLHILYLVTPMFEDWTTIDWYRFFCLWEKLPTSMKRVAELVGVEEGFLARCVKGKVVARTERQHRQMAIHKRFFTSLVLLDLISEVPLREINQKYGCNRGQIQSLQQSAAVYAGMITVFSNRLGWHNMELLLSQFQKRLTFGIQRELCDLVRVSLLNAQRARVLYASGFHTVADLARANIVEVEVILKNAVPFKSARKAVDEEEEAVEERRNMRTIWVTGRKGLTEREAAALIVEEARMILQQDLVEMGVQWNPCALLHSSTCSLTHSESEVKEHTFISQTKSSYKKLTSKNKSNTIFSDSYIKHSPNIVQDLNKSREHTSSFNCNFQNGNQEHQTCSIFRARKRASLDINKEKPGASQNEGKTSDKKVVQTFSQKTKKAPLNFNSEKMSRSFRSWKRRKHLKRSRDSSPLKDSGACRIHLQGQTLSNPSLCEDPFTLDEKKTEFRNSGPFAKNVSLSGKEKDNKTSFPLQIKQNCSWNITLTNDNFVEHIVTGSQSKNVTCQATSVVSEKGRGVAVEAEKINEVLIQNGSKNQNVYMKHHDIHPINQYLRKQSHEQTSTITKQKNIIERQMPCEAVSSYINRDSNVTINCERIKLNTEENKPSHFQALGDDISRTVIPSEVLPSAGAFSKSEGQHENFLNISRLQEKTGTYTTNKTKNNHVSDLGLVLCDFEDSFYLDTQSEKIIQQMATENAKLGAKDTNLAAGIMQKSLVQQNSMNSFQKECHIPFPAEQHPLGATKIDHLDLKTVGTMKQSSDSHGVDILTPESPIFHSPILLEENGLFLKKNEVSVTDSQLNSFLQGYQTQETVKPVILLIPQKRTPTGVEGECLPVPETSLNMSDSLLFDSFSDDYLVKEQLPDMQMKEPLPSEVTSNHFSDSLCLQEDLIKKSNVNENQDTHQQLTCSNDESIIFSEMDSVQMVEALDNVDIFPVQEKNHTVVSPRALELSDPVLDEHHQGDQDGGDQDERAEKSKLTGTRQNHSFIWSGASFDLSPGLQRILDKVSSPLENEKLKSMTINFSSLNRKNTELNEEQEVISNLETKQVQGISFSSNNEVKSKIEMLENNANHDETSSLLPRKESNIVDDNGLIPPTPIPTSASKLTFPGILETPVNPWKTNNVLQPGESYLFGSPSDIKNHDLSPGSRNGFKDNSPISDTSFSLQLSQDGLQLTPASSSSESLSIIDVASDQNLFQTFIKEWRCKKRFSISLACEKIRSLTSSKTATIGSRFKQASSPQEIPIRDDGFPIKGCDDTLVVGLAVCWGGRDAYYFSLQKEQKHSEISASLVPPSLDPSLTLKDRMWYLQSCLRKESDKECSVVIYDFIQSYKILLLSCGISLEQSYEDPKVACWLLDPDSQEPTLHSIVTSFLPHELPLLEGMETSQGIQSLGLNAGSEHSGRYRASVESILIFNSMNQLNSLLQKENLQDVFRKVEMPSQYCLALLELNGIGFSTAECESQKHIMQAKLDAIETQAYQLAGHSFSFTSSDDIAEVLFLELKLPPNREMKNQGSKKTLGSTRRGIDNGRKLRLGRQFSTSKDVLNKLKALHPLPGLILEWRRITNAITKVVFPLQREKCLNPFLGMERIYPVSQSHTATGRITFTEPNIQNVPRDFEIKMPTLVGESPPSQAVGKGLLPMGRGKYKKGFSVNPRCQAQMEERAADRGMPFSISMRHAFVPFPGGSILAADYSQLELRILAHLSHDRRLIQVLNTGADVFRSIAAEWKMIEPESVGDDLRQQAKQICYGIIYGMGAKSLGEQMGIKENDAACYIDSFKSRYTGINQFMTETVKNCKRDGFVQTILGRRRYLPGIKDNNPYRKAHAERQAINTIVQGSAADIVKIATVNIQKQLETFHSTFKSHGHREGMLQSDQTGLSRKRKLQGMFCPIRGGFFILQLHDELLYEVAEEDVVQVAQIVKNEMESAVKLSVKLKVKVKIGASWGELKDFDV
Observed: enzyme activity
Mode: inhibitor
Concentration: 77 µM
Reference: untreated
| Structure (SMILES) | remaining activity |
| --- | --- |
| O=C(O)Cc1ccc(-c2ccccc2)cc1 | 102% |
| COc1ccc2c(c1)c(CC(=O)OCC(=O)O)c(C)n2C(=O)c1ccc(Cl)cc1 | 102% and 97.1% |
| O=C(O)c1cc(-c2ccc(F)cc2F)ccc1O | 79.6% |
| O=C1c2c(O)cccc2C([C@@H]2O[C@H](CO)[C@@H](O)[C@H](O)[C@H]2O)c2cc(CO)cc(O)c21 (some centres unmarked) | 90.7% |
| OCC(O)CCON=C1C(c2c(O)[nH]c3ccccc23)=Nc2ccccc21 (centres unmarked) | 108% |
| C[C@H]1[C@H](C)CC[C@]2(C(=O)O)CC[C@]3(C)C(=CC[C@@H]4[C@@]5(C)CC[C@H](O)C(C)(C)[C@@H]5CC[C@]43C)[C@H]12 | 91% and 98.6% |
| C[C@@H](NCCc1ccc(O)cc1)[C@@H](O)c1ccc(O)cc1 (racemic) | 102% |

Study 3
SMILES: O=C1NC(c2ccccn2)Sc2ccccc21 (centres unmarked)
Technique: competition with immobilised ligand
Concentration: 1 µM
| target | observed | remaining binding |
| --- | --- | --- |
| Cyclin-dependent kinase 18 (CDK18, Homo sapiens, UniProt Q07002) | cell-free assay | 93% |
| Cyclin-dependent kinase-like 2 (CDKL2, Homo sapiens, UniProt Q92772) | cell-free assay | 76% |
| Phosphatidylinositol 3-kinase C2 domain-containing subunit gamma (PIK3C2G, Homo sapiens, UniProt O75747) | cell-free assay | 100% |
| Mast/stem cell growth factor receptor Kit, autoinhibited (KIT, Homo sapiens, UniProt P10721) | cell-free assay | 88% |
| Tyrosine-protein kinase ABL1, phosphorylated (ABL1, Homo sapiens, UniProt P00519, H396P) | cell-free assay | 84% |
| 5'-AMP-activated protein kinase catalytic subunit alpha-1 (PRKAA1, Homo sapiens, UniProt Q13131) | cell-free assay | 100% |
| Serine/threonine-protein kinase RIO1 (RIOK1, Homo sapiens, UniProt Q9BRS2) | cell-free assay | 80% |
| TGF-beta receptor type-1 (TGFBR1, Homo sapiens, UniProt P36897) | cell-free assay | 100% |
| Dual specificity testis-specific protein kinase 1 (TESK1, Homo sapiens, UniProt Q15569) | cell-free assay | 100% |
| Serine/threonine-protein kinase MAK (MAK, Homo sapiens, UniProt P20794) | cell-free assay | 92% |
| Phosphatidylinositol 4,5-bisphosphate 3-kinase catalytic subunit alpha isoform (PIK3CA, Homo sapiens, UniProt P42336, M1043I) | cell-free assay | 74% |
| Atypical kinase COQ8A, mitochondrial (COQ8A, Homo sapiens, UniProt Q8NI60) | cell-free assay | 98% |
| Platelet-derived growth factor receptor alpha (PDGFRA, Homo sapiens, UniProt P16234) | cell-free assay | 76% |
| Mitogen-activated protein kinase 1 (MAPK1, Homo sapiens, UniProt P28482) | cell-free assay | 89% |
| Tyrosine-protein kinase ABL1, non-phosphorylated (ABL1, Homo sapiens, UniProt P00519, F317I) | binding | 90% |
| Eukaryotic translation initiation factor 2-alpha kinase 1 (EIF2AK1, Homo sapiens, UniProt Q9BQI3) | cell-free assay | 79% |
| Cyclin-dependent kinase-like 3 (CDKL3, Homo sapiens, UniProt Q8IVW4) | cell-free assay | 88% |
| Serine/threonine-protein kinase MARK1 (MARK1, Homo sapiens, UniProt Q9P0L2) | cell-free assay | 99% |
| NT-3 growth factor receptor (NTRK3, Homo sapiens, UniProt Q16288) | cell-free assay | 81% |
| Inhibitor of nuclear factor kappa-B kinase subunit beta (IKBKB, Homo sapiens, UniProt O14920) | cell-free assay | 100% |
| Tyrosine-protein kinase Fgr (FGR, Homo sapiens, UniProt P09769) | cell-free assay | 100% |
| Mitogen-activated protein kinase kinase kinase 20 (MAP3K20, Homo sapiens, UniProt Q9NYL2) | cell-free assay | 100% |
| Dual specificity tyrosine-phosphorylation-regulated kinase 2 (DYRK2, Homo sapiens, UniProt Q92630) | cell-free assay | 99% |
| Tyrosine-protein kinase ZAP-70 (ZAP70, Homo sapiens, UniProt P43403) | cell-free assay | 90% |
| Serine/threonine-protein kinase ULK1 (ULK1, Homo sapiens, UniProt O75385) | cell-free assay | 100% |

Study 4
Structure (SMILES): O=C(Nc1cnn(-c2csc(C(=O)NC3COC3)c2)c1)Nc1c(F)cccc1Cl
Observed: enzyme activity
Concentration: 5 µM
| target | mode | reference | remaining activity [%] |
| --- | --- | --- | --- |
| Epithelial discoidin domain-containing receptor 1 (DDR1, Homo sapiens, UniProt Q08345) | inhibitor | – | 88.9 |
| Calcium/calmodulin-dependent protein kinase type IV (CAMK4, Homo sapiens, UniProt Q16566) | – | untreated control | 97.6 |
| Mitogen-activated protein kinase kinase kinase 9 (MAP3K9, Homo sapiens, UniProt P80192) | – | untreated control | 88 |
| Aurora kinase A (AURKA, Homo sapiens, UniProt O14965) | – | untreated control | 82.1 |
| Tyrosine-protein kinase ABL2 (ABL2, Homo sapiens, UniProt P42684) | – | untreated control | 84.2 |
| Tyrosine-protein kinase FRK (FRK, Homo sapiens, UniProt P42685) | – | untreated control | 95.6 |
| Calcium/calmodulin-dependent protein kinase type II subunit beta (CAMK2B, Homo sapiens, UniProt Q13554) | – | untreated control | 95.7 |
| Casein kinase I isoform alpha-like (CSNK1A1L, Homo sapiens, UniProt Q8N752) | – | untreated control | 80.9 |
| Serine/threonine-protein kinase SIK3 (SIK3, Homo sapiens, UniProt Q9Y2K2) | – | untreated control | 93.3 |
| Serine/threonine-protein kinase Nek11 (NEK11, Homo sapiens, UniProt Q8NG66) | – | untreated control | 88.7 |

Repeated from above (study 3):
| target | observed | remaining binding |
| --- | --- | --- |
| Phosphatidylinositol 4,5-bisphosphate 3-kinase catalytic subunit alpha isoform (PIK3CA, Homo sapiens, UniProt P42336, M1043I) | cell-free assay | 74% |
| Atypical kinase COQ8A, mitochondrial (COQ8A, Homo sapiens, UniProt Q8NI60) | cell-free assay | 98% |
| Platelet-derived growth factor receptor alpha (PDGFRA, Homo sapiens, UniProt P16234) | cell-free assay | 76% |
| Mitogen-activated protein kinase 1 (MAPK1, Homo sapiens, UniProt P28482) | cell-free assay | 89% |
